Measured values gathered from unrelated publications.
Parts stem from different laboratories: compare values within a part only. Substitutions count along the parent as printed.

Study 1
Molecule: PhoQ, residues 284 288 289 292 302 303 TVTVVA
Method: Sort-seq
Refers to: YFP reporter
Medium: E. coli
Setting: PhoQ-PhoP variant library
With: 10 µM Mg2+
Relative to: high Mg2+ state
Reading: higher = stronger signaling
target	fold induction
PhoP, residues 12 14 15 18 19 TQCLL (Escherichia coli, UniProt P23836)	11.2
PhoP, residues 12 14 15 18 19 ICWRQ (Escherichia coli, UniProt P23836)	2.74
PhoP, residues 12 14 15 18 19 VHTVL (Escherichia coli, UniProt P23836)	5.35

Study 2
Target: Sal-like protein 4, full length isoform A (SALL4, Homo sapiens, UniProt Q9UJQ4, residues 1-1053)
Sequence of UniProt Q9UJQ4 (whole entry, looked up): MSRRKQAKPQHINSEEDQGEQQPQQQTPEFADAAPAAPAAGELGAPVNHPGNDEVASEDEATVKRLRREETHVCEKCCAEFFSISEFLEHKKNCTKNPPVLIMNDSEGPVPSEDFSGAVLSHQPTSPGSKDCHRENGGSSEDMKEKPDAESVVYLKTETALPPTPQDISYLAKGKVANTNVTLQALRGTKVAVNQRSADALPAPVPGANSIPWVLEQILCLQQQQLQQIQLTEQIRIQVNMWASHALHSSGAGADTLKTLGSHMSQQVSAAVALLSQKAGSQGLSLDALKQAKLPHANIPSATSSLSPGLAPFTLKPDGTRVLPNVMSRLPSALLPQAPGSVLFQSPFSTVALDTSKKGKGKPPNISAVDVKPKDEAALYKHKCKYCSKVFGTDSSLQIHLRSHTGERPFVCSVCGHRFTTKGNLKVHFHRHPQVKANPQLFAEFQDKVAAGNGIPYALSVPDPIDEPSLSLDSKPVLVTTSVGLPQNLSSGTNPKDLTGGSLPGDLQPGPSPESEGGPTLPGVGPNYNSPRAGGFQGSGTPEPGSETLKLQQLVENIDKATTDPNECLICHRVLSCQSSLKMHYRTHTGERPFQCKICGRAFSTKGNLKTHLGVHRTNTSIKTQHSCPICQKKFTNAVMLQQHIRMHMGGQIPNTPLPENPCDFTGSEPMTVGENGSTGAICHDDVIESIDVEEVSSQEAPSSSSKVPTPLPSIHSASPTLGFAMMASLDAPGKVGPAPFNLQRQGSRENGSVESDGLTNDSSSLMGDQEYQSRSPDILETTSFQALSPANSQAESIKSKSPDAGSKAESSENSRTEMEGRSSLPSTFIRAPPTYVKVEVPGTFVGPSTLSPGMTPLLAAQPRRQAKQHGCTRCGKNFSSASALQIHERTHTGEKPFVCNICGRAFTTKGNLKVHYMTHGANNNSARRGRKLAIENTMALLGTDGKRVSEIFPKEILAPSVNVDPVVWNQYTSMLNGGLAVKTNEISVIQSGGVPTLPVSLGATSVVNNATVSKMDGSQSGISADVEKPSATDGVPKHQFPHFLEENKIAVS
Method: universal PBM
Form: double-stranded DNA, one strand shown
Medium: in vitro
Tested at: 600 nM
Setting: 8-mer, flanks averaged, mean of replicates
Reading: higher = stronger binding
Sequence	E-score
GTTCATCA	0.106
CAAGAATG	-0.0267
GAGACAGC	-0.138
CTCAATAC	0.133
GGTTAGAA	-0.0154
TATAGGGA	0.109
AGCGTTAC	-0.0235
ACTCGTGC	-0.0827
GGGAGAAC	-0.317
TAGCCTCA	-0.0156
ATTGGAAC	0.149
CATGCTAA	0.108
ACTCCTGG	-0.301
CTTCCGTA	-0.00887
ACTCAGCG	-0.0742

Study 3
Target: Prothrombin, mature alpha-thrombin (F2, Homo sapiens, UniProt P00734)
Method: aptamer microarray, sandwich
Form: DNA with 2'F-ANA
Medium: in vitro
Tested at: 200 nM
Setting: whole 15-mer aptamer, many near background
With: Cy3 exosite-II aptamer, 400 nM
Reading: higher = stronger binding
Sequence: GGTTGGTGTGGTTGG
Modification	mean fluorescence intensity
2'F-ANA at 2 4 6 7 10 11 12 15	96.4 a.u.
2'F-ANA at 1 2 4 6 7 8 13	87.4 a.u.
2'F-ANA at 4 7 9 10 12 13 15	92.7 a.u.
2'F-ANA at 3 6 8 9 10 11 12 13 14	339 a.u.
2'F-ANA at 2 5 8 9 14	52.9 a.u.
2'F-ANA at 4 6 9 10 12 13	79.8 a.u.
2'F-ANA at 1 2 3 4 5 8 10 11 15	72.9 a.u.
2'F-ANA at 2 5 6 9 10 11 12 13 14 15	52.7 a.u.
2'F-ANA at 2 3 5 8 9 10 13	68.1 a.u.
2'F-ANA at 3 5 6 7 9 11 12 13 14	54.1 a.u.
2'F-ANA at 1 2 3 4 5 6 7 9 10 11 15	96.5 a.u.
2'F-ANA at 2 4 6 9 10 12 13 14	61.4 a.u.
2'F-ANA at 1 2 4 5 6 8 10 11 12 13 14	48.9 a.u.
2'F-ANA at 2 4 5 8 10 11 12 13 15	45.4 a.u.

Study 4
Target: CCND1, cyclin fold, Cln2 fusion (human)
Method: yeast growth competition, sequencing
Medium: yeast
Setting: weak parent motif
Relative to: not given
Reading: higher = stronger binding
Starting sequence: RB1 docking peptide (human); PKPLKKLRFDIEG; partner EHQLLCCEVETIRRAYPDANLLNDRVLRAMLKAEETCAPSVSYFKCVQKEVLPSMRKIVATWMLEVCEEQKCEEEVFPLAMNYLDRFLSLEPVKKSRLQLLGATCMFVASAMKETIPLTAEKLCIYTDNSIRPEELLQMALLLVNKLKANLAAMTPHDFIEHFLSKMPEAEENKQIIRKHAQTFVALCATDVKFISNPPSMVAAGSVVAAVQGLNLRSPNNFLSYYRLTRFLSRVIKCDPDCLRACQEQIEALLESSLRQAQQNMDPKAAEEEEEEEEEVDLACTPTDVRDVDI
Change	normalised enrichment score
PKPLKKLKFDIEG [R8K]	0.29
PKPLKKLRFDIEY [G13Y]	-1.03
PKPLDKLRFDIEG [K5D]	-0.0591
PKVLKKLRFDIEG [P3V]	-0.612
PKPLKKKRFDIEG [L7K]	0.553
PKPLKCLRFDIEG [K6C]	0.288
FKPLKKLRFDIEG [P1F]	-0.0412
PKPLKKLRFDIKG [E12K]	-0.687
PKPLKQLRFDIEG [K6Q]	0.0336
PKPLKKLRFDIQG [E12Q]	-0.2

Some of these lines once more (study 2):
Sequence	E-score
GGGAGAAC	-0.317
TAGCCTCA	-0.0156
ATTGGAAC	0.149
CATGCTAA	0.108
ACTCCTGG	-0.301
CTTCCGTA	-0.00887
ACTCAGCG	-0.0742
